Measurements pooled from the literature.
Numbered parts are unrelated; each lists some results of a single study.

Series 1
Target: Histone acetyltransferase KAT6A, winged helix 2, GST fusion (KAT6A, Homo sapiens, UniProt Q92794, residues 85-181)
Method: protein binding microarray
Form: double-stranded DNA, one strand shown
Medium: in vitro
Tested at: not given
Notes: 8-mer, flanks averaged, mean of 2 arrays, mostly near background
Baseline: not given
Reading: higher = stronger binding
Endpoint: E-score
Target sequence (chain): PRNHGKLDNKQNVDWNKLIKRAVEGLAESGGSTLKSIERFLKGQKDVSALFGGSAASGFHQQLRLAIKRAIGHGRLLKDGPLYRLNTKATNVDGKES
AAACCATA: -0.011
AGTTTGTA: -0.15
CAACTGGA: -0.0698
GGTTGTGA: -0.0527
AGTTTACG: 0.0963
CTCATTTA: -0.0261
AAAGGCAC: 0.0861
TCAGAAGA: 0.0434
CGCTGTGA: -0.0997
TGATGTAA: -0.0327
ATCAATGG: -0.237
CATAACTA: -0.0355

Series 2
Target: Interferon regulatory factor 7, full length, phosphomimetic (IRF7, Homo sapiens, UniProt Q92985, residues 1-503, S471D/S472D/S475D/S476D/S477D/S483D/S484D/S487D)
Sequence of UniProt Q92985 (whole entry, unmodified, looked up): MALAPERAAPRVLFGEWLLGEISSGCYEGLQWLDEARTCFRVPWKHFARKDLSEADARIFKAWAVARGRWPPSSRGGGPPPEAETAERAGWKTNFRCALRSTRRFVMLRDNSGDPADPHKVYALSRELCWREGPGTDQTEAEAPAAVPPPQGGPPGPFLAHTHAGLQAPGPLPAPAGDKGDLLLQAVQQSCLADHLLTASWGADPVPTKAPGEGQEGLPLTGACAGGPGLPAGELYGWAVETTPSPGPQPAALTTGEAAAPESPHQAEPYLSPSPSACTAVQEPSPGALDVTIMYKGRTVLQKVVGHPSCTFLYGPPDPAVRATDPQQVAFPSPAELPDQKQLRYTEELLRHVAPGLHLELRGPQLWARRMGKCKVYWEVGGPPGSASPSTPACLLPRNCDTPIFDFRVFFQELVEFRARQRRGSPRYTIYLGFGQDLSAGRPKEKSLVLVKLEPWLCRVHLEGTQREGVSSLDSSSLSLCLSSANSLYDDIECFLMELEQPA
Method: protein-binding microarray
Form: double-stranded DNA, one strand shown
Medium: in vitro
Tested at: 2200 nM top
Notes: 60-bp whole probe
Added: salmon DNA 0.4 mg/ml
Baseline: random background probes
Reading: higher = stronger binding
Endpoint: fitted relative affinity
All sequences stand within: GCCTAGCAC … GTCTTGATTCGCTTGACGCTGCTG
GACGGACTGGGCTTTCGGGACGTGCTA: 0.46 z-score
GGCAAAAACATGAACAGACAGTGCTAG: -1.24 z-score
GACGATTTCGGGACAGGAGACGTGCTA: 1.54 z-score
GACGATCTTAGTCTCGAGACGTGCTAG: 0.246 z-score
GACGAACTGGGGTATTGAGACGTGCTA: 0.324 z-score
TTAGGTCTCCTTTACCTTTAGTGCTAG: 1.16 z-score
AACCTTATTAAGATTGTGCAAGTGCTA: -0.337 z-score
TTAGATTTCAGTGCCGATTAGTGCTAG: 0.175 z-score
TCAGTTGTAGGTTTTCTGACTGTGCTA: 0.748 z-score

Series 3
Target: PABPC1L2, full length, GST fusion (mouse, UniProt A0ABA7IW68)
Method: RNAcompete
Form: RNA
Medium: in vitro
Tested at: 20 nM
Notes: 7-mer, probes averaged, single round
Baseline: mean of 7-mers
Reading: higher = stronger binding
Endpoint: 7-mer Z-score
Construct (chain): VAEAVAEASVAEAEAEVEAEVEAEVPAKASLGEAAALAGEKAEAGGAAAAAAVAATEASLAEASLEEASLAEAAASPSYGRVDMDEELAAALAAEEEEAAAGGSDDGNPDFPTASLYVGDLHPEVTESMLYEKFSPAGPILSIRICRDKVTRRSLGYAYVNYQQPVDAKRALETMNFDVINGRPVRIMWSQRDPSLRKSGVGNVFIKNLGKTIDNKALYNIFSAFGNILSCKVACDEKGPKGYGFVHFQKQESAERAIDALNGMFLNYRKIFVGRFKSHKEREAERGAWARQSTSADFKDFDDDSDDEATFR
UGGACGA: -0.103
UGUGGAG: 0.207
UCGGGUG: -0.144
ACAAGGC: 0.338
CAGUGAU: -0.26
GAUAAUA: 0.155
GUCGAAA: 0.227
UUGAGAA: 0.218
CUAGAGG: 0.0605
ACACAAG: 0.191
GAGAUUG: -0.0554
AUAAUCA: -0.0337
AUGUUAU: -0.139
CAUCCUC: -0.329
CCUAGAU: -0.171

Single results of other studies
PhoQ, residues 284 288 289 292 302 303 AGCYAI  fold induction (PhoP, residues 12 14 15 18 19 LHHSG (Escherichia coli, UniProt P23836); Sort-seq, refers to: YFP reporter; E. coli; PhoQ-PhoP variant library, added: 10 µM Mg2+; baseline: high Mg2+ state, higher = stronger signaling): 2.64

Some of these lines once more (series 2):
GACGGACTGGGCTTTCGGGACGTGCTA: 0.46 z-score
GACGATCTTAGTCTCGAGACGTGCTAG: 0.246 z-score
TTAGGTCTCCTTTACCTTTAGTGCTAG: 1.16 z-score
AACCTTATTAAGATTGTGCAAGTGCTA: -0.337 z-score
TCAGTTGTAGGTTTTCTGACTGTGCTA: 0.748 z-score
